Assay results from different studies.
Parts stem from different laboratories: compare values within a part only.

Set 1
Target: Histone acetyltransferase KAT6A, winged helix 2, GST fusion (KAT6A, Homo sapiens, UniProt Q92794, residues 85-181)
Technique: protein binding microarray
Form: double-stranded DNA, one strand shown
Matrix: in vitro
Tested at: not given
Notes: 8-mer, flanks averaged, mean of 2 arrays, mostly near background
Relative to: not given
Direction: higher = stronger binding
Residues (chain): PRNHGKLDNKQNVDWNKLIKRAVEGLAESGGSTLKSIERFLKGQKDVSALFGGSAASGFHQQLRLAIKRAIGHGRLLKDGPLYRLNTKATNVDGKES
Sequence | E-score
GTGCGCAA | 0.139
CGAGTCTC | -0.152
GAACTTCC | -0.147
CTCACATA | -0.18
ATTTCGAA | 0.0684

Set 2
Target: GDNF-inducible zinc finger protein 1, full length (GZF1, Homo sapiens, UniProt Q9H116, residues 1-711)
Sequence of UniProt Q9H116 (whole entry, looked up): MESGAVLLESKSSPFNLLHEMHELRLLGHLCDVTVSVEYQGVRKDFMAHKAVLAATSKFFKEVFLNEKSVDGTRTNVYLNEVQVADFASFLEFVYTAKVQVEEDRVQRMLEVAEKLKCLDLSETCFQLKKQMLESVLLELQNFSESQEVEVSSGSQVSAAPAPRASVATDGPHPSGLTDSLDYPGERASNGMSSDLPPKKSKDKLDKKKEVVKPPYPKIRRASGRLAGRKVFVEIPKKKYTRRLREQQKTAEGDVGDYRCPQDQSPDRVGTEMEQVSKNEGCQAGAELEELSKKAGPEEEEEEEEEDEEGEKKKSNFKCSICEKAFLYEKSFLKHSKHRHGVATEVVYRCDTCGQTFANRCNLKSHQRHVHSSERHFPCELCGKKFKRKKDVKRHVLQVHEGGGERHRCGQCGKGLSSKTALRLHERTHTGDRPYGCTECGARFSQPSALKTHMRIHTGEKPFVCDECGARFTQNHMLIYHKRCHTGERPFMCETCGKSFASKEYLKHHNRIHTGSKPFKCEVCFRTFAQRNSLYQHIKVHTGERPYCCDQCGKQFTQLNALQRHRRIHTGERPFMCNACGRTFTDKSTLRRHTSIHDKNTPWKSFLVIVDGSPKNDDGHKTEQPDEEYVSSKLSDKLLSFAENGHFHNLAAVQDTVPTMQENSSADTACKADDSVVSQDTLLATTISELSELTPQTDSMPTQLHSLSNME
Technique: protein-binding microarray
Form: hairpin DNA
Matrix: in vitro
Tested at: not given
Notes: whole hairpin DNA, median over replicate spots
Relative to: not given
Direction: higher = stronger binding
Sequence | median fluorescence
GAGGCCATTACGGTAACGCCTCCTGGCGTTACCGTAATGGCCTCACACTC (5mC at 17) | 667 a.u.
GAGGCCATTACGGGAATGCCTCCTGGCATTCCCGTAATGGCCTCACACTC (5mC at 31) | 490 a.u.
GAGGCCATTACGGCGATGCCTCCTGGCATCGCCGTAATGGCCTCACACTC (5mC at 30) | 532 a.u.
GAGGCCATTACGGTCGTGCCTCCTGGCACGACCGTAATGGCCTCACACTC (5mC at 29) | 578 a.u.
GAGGCCGTTACGGTAATGCCTCCTGGCATTACCGTAACGGCCTCACACTC | 743 a.u.

Set 3
Target: Interferon regulatory factor 5, full length, phosphomimetic (IRF5, Homo sapiens, UniProt Q13568-2, residues 1-514, S451D/S453D/S456D/S462D)
Technique: protein-binding microarray
Form: double-stranded DNA, one strand shown
Matrix: in vitro
Tested at: 940 nM top
Notes: 60-bp whole probe
Added: salmon DNA 0.4 mg/ml
Relative to: random background probes
Direction: higher = stronger binding
Constant ends, left off below: GCCTAGCAC … GTCTTGATTCGCTTGACGCTGCTG
Sequence | fitted relative affinity [z-score]
TATGTTCACTATTTAAGGCCGTGCTAG | -0.119
GACGGACAGCTTATCCTGACGTGCTAG | -0.632
GACGGTCTCGGACTGTGGACGTGCTAG | 0.58
TCACATCTGATTTCTCAAACTGTGCTA | 0.482
TAGGTTTCACTTTCCAAAACGTGCTAG | 10

Further values, each from its own experiment
Substance | target | assay | test system | setting | scale | measurement | result
PhoQ, residues 284 288 289 292 302 303 ALAMYF | PhoP, residues 12 14 15 18 19 TPWTL (Escherichia coli, UniProt P23836) | Sort-seq, measured: YFP reporter | E. coli | PhoQ-PhoP variant library, added: 10 µM Mg2+ | relative to: high Mg2+ state, higher = stronger signaling | fold induction | 12.9

For quick reference, copied from above (set 3):
Sequence | fitted relative affinity [z-score]
GACGGTCTCGGACTGTGGACGTGCTAG | 0.58
TCACATCTGATTTCTCAAACTGTGCTA | 0.482
